Results from different studies.
Each line is one published result; not all experiments were run side by side.
Organism: Mycobacterium tuberculosis

Structure (SMILES) | assay | test system | setting | MIC
CCc1ccn2c(C(=O)NCc3ccc(C)cc3)c(C)nc2c1 | microbial growth | H37RV | 5 days | 0.004 µM
O=C(CN1C(=O)CSC1=O)Oc1ccc(/C=N/NC(=O)c2cccnc2)cc1Br | microbial growth, resazurin | H37RV | – | 268 µM
Cc1ccc2nc(C)c(C(=O)C(=O)NCc3ccccc3)n2c1 | microbial growth | H37RV | 5 days | 8.5 µM
O=C1NN(c2ccccc2)C(=O)C1/N=N/c1nnc(S)[nH]1 (centres unmarked) | microbial growth, resazurin | H37RV | 5 days | > 64 µg/mL
CCCCNc1c(Cl)cnn(-c2ccccc2)c1=O | bacterial growth | H37Rv, Sauton's medium | – | 900 µM
COc1ccc2nccc(CC[C@H]3OC[C@H](NC(=O)c4ccc5c(c4)OCCO5)CO3)c2c1 | microbial growth | H37RV | – | > 32 µg/mL
Cc1ccc2nc(C)c(C(=O)C(=O)NCc3ccc(N(C)C)cc3)n2c1 | microbial growth | H37RV | 5 days | 3.1 µM
Cc1[nH]c(=O)[nH]c(=O)c1/N=N/c1nnc(S)s1 | microbial growth, resazurin | H37RV | 5 days | > 64 µg/mL
CCc1ccn2c(C(=O)N(C)C)c(C)nc2c1 | microbial growth | H37RV | 5 days | 66 µM
COc1c(Cl)cnn(-c2cccc(C)c2)c1=O | bacterial growth | H37Rv, Sauton's medium | – | > 1000 µM
COc1c(N2CC3CCCNC3C2)c(F)cc2c(=O)c(C(=O)OCc3cnc([N+](=O)[O-])n3C)cn(C3CC3)c12 (centres unmarked) | microbial growth | H37RV | – | 1 µM
CN[C@@H]1[C@H](O)[C@H](NC)[C@H]2O[C@]3(O)[C@H](O[C@@H]2[C@H]1O)O[C@H](C)C[C@H]3NC(=O)Cc1cc(Cl)ccn1 | – | – | – | 0.8 µg/mL
Cc1ccc(CNC(=O)C(=O)c2c(C)nc3ccc(C)cn23)cc1 | microbial growth | H37RV | 5 days | 4.5 µM
COc1ccc2ncc(F)c(CC[C@H]3OC[C@H](NCc4ccc(Cl)c(Cl)c4)CO3)c2n1 | microbial growth | H37RV | – | ≤ 1 µg/mL
Cc1nc2ccc(C(F)(F)F)cn2c1C(=O)NCc1ccc2oc(-c3ccc(Cl)cc3)nc2c1 | optical density | H37Rv | 144 h | > 10 µM
O=c1c(N2CCCC2)c(Cl)cnn1-c1ccccc1 | bacterial growth | H37Rv, Sauton's medium | – | 910 µM
Cc1nc(=S)[nH]c(C)c1/N=N/c1nnc(S)[nH]1 | microbial growth, resazurin | H37RV | 5 days | 4 to 64 µg/mL
CCSc1cnn(-c2ccccc2)c(=O)c1Cl | bacterial growth | H37Rv, 7H9 medium with OADC | – | > 940 µM
Cc1[nH][nH]c(=O)c1/N=N/c1nnc(S)s1 | microbial growth, resazurin | H37RV | 5 days | > 64 µg/mL
COc1c(N2CC3CCCNC3C2)c(F)cc2c(=O)c(C(=O)OCc3cncs3)cn(C3CC3)c12 (centres unmarked) | microbial growth | H37RV | – | 2 to 8 µM
CCC(CO)NCCNC(CC)CO.O=C(CN1C(=O)CSC1=O)Oc1ccc(C=NNC(=O)c2ccncc2)cc1Cl | growth in combination | H37Rv | added: reference drug at 1/2 MIC | 0.5 µg/mL
O=c1c(Cl)c(Cl)cnn1Cc1ccccc1 | bacterial growth | H37Rv, 7H9 medium with OADC | – | 490 µM
CC(C)C[C@H](NC(=O)[C@H](C)NC(=O)[C@H](CCC(=O)O)NC(=O)[C@@H](N)Cc1c[nH]cn1)C(=O)N[C@@H](COP(=O)(O)O)C(=O)N[C@@H](CC(=O)O)C(=O)N1CCC[C@H]1C(=O)N[C@@H](CC(=O)O)C(=O)O | – | H37Rv | – | 50 µg/mL
COc1ccc2nccc(CC[C@H]3OC[C@H](NC(=O)c4ccc(Cl)cc4)CO3)c2c1 | microbial growth | H37RV | – | 2 µg/mL

Structure (SMILES) | assay | test system | setting | MIC
O=C1NNC(=O)C1/N=N/c1nnc(S)[nH]1 | microbial growth, resazurin | H37RV | 5 days | > 64 µg/mL
CCc1nc2ccc(C(F)(F)F)cn2c1C(=O)NCc1ccc2oc(-c3ccc(Cl)cc3)nc2c1 | optical density | H37Rv | 144 h | > 10 µM
CCOc1c(Cl)cnn(-c2ccccc2)c1=O | bacterial growth | H37Rv, Sauton's medium | – | 1000 µM
CCc1nc2cc(Br)ccn2c1C(=O)NCc1ccc2oc(-c3ccc(OC(F)(F)F)cc3)nc2c1 | optical density | H37Rv | 144 h | > 10 µM
O=C1NC(=O)C(/N=N/c2nnc(S)[nH]2)C(=O)N1 | microbial growth, resazurin | H37RV | 5 days | > 64 µg/mL
COc1c(N2CC3CCCNC3C2)c(F)cc2c(=O)c(C(=O)OCc3ccccc3)cn(C3CC3)c12 (centres unmarked) | microbial growth | H37RV | – | 1 µM
COc1cc(/C=N/NC(=O)c2ccncc2)ccc1OC(=O)CN1C(=O)CSC1=O | Alamar blue | 192 | – | 149 µM
Cc1nc2cc(OC(F)(F)F)ccn2c1C(=O)NCc1ccc2oc(-c3ccc(OC(F)(F)F)cc3)nc2c1 | optical density | H37Rv | 144 h | > 10 µM
CCOc1cc(/C=N/NC(=O)c2cccnc2)ccc1OC(=O)CN1C(=O)CSC1=O | microbial growth, resazurin | H37RV | – | 579 µM
Clc1ccc(CCNc2cc(-c3ccccn3)nc3ncnn23)cc1 | microbial growth | H37RV | 5 days | 0.71 µM
CCc1nc2ccc(Cl)cn2c1C(=O)NCc1ccc2oc(-c3ccc(OC(F)(F)F)cc3)nc2c1 | optical density | H37Rv | 144 h | ≤ 0.04 µM
Cc1nnc2nc(-c3ccccn3)cc(NCCc3ccc(OC(F)(F)F)cc3)n12 | microbial growth | H37RV | 5 days | 17 to 50 µM
CCc1nc2ccc(Br)cn2c1C(=O)NCc1ccc2oc(-c3ccc(Cl)cc3)nc2c1 | optical density | H37Rv | 144 h | 0.2 µM
NC(=S)NN=Cc1ccc(OC(=O)CN2C(=O)CSC2=O)cc1.NNC(=O)c1ccncc1 | growth in combination | 192 | added: reference drug at 1/2 MIC | 0.0156 µg/mL
COc1ccc2ncc(F)c(CC[C@@]3(O)CO[C@@H]4[C@@H](NCc5ccc(Cl)c(Cl)c5)CO[C@@H]43)c2n1 | microbial growth | H37RV | – | 2 µg/mL
FC(F)(F)Oc1ccc(CCNc2cc(-c3ccc(Cl)s3)nc3nncn23)cc1 | microbial growth | H37RV | 5 days | 20 µM
Cc1nc2ccc(Br)cn2c1C(=O)NCc1ccc2oc(-c3ccc(OC(F)(F)F)cc3)nc2c1 | optical density | H37Rv | 144 h | 0.2 µM
NNC(=O)c1ccncc1.O=C(CN1C(=O)CSC1=O)Oc1ccc(C=NNC(=O)c2ccncc2)cc1 | growth in combination | 192 | added: reference drug at 1/2 MIC | 0.0312 µg/mL
CCc1nc2cc(C(F)(F)F)ccn2c1C(=O)NCc1ccc2oc(-c3ccc(Cl)cc3)nc2c1 | optical density | H37Rv | 144 h | > 25 µM
CCOc1cc(/C=N/NC(=O)c2ccncc2)ccc1OC(=O)CN1C(=O)CSC1=O | Alamar blue | 192 | – | 0.283 µM
COc1ccc2ncc(F)c(C(O)C[C@H]3OC[C@H](NCc4ccc5c(c4)OCCO5)CO3)c2c1 (some centres unmarked) | microbial growth | H37RV | – | 8 µg/mL
CCC(CO)NCCNC(CC)CO.CCOc1cc(C=NNC(N)=S)ccc1OC(=O)CN1C(=O)CSC1=O | growth in combination | H37Rv | added: reference drug at 1/2 MIC | 0.5 µg/mL
C=CCOC(=O)c1ccc(OS(=O)(=O)CCNc2ccc(S(=O)(=O)c3ccc(N)cc3)cc2)cc1 | – | pabC deletion mutant | concentration not given, 12 days | 1.56 µM

A few entries again:
Structure (SMILES) | assay | test system | setting | MIC
Cc1ccc2nc(C)c(C(=O)C(=O)NCc3ccc(N(C)C)cc3)n2c1 | microbial growth | H37RV | 5 days | 3.1 µM
Cc1ccc2nc(C)c(C(=O)C(=O)NCc3ccccc3)n2c1 | microbial growth | H37RV | 5 days | 8.5 µM
CCc1nc2cc(Br)ccn2c1C(=O)NCc1ccc2oc(-c3ccc(OC(F)(F)F)cc3)nc2c1 | optical density | H37Rv | 144 h | > 10 µM
CN[C@@H]1[C@H](O)[C@H](NC)[C@H]2O[C@]3(O)[C@H](O[C@@H]2[C@H]1O)O[C@H](C)C[C@H]3NC(=O)Cc1cc(Cl)ccn1 | – | – | – | 0.8 µg/mL
CCc1nc2ccc(Br)cn2c1C(=O)NCc1ccc2oc(-c3ccc(Cl)cc3)nc2c1 | optical density | H37Rv | 144 h | 0.2 µM
COc1ccc2ncc(F)c(C(O)C[C@H]3OC[C@H](NCc4ccc5c(c4)OCCO5)CO3)c2c1 (some centres unmarked) | microbial growth | H37RV | – | 8 µg/mL
CCc1ccn2c(C(=O)NCc3ccc(C)cc3)c(C)nc2c1 | microbial growth | H37RV | 5 days | 0.004 µM
